Measured values collected from several papers.
Lines come from different studies, so protocols differ. Values joined by “and” are separate records of one study, mostly repeats; a detail may differ. Numbers after ± are the reported error.
Chain of UniProt P9WI81 (whole entry, looked up): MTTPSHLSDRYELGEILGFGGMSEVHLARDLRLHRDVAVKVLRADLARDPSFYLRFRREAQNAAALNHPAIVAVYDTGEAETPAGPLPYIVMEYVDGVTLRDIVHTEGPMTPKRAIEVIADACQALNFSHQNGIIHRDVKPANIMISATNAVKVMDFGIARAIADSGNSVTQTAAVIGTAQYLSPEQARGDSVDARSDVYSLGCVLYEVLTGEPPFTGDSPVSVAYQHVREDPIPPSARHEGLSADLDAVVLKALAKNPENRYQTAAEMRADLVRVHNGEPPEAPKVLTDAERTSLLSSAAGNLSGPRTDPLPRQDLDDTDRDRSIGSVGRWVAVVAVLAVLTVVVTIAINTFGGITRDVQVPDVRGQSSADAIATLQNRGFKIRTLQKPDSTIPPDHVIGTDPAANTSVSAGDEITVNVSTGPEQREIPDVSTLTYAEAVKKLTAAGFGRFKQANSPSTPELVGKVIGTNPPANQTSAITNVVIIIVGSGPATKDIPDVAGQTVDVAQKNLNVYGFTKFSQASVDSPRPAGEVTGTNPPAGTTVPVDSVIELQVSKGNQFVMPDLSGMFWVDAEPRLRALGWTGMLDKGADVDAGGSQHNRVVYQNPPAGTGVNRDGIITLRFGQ

With `CC[C@@]1(c2cccc(C(F)(F)F)c2)C2=C(Nc3n[nH]cc31)[C@H](F)C(C)(C)CC2=O` (single isomer, unassigned) the remaining binding was 100% (Serine/threonine-protein kinase PknB (pknB, Mycobacterium tuberculosis, UniProt P9WI81); binding, competition with immobilised ligand; 1 µM).
The viability of `Cc1c(NC(=O)c2cccn(-c3ccc(F)cc3)c2=O)ccc(Oc2ccnc(NC(=O)C3CC3)c2)c1C` is reported as 76.6% (L929; necroptosis protection, CCK-8; 2.5 µM, with: TNF-α-induced).
With `O=[N+]([O-])c1ccc(C2=NOC3(NC(c4ccccc4)=NO3)N2c2ccccc2)cc1` (centres unmarked) the IC50 was 5.1 ± 0.11 µM (Plasmodium falciparum; parasite growth; W2mef multidrug-resistant; 72 h).
The viability of `Cc1cc(-c2cnc(N)c3c(-c4ccc5scnc5c4)csc23)n(C)n1` is reported as 14.3% (L929; necroptosis protection, CCK-8; 0.00229 µM, with: TNF-α-induced).
`N=C(N)NCCCCCCN1CCC23c4c5ccc(O)c4OC2c2nc4ccccc4cc2CC3(O)C1C5` (centres unmarked) has a seizure score of 0 (modified Racine scale; C57BL/6J mice, male; intracerebroventricular, 100 nmol, 55 min; direction not given).
The clearance of `Cn1cc(-c2cccc(CN3CCC4(CC3)COc3c4ccc4c3CN([C@H]3CCC(=O)NC3=O)C4=O)c2)cn1` is reported as 18.1 mL/min/kg (cynomolgus monkey, plasma; intravenous, 1 mg/kg).
`CC(C)(C)n1nc(-c2ccc(Cl)cc2)c2c(N)ncnc21` has a viability of 56.3% and 60.1% and 69% and 64.5% (L929; CCK-8; 12.5 µM).
With `C#CCN1C(=O)C(O)(C(=O)O)Oc2cc(F)ccc21` (centres unmarked) the root length was 1.04 cm (Arabidopsis thaliana; Col-0; 3.125 µg/mL, seed germination).

For quick reference, copied from above:
`N=C(N)NCCCCCCN1CCC23c4c5ccc(O)c4OC2c2nc4ccccc4cc2CC3(O)C1C5` (centres unmarked) has a seizure score of 0 (modified Racine scale; C57BL/6J mice, male; intracerebroventricular, 100 nmol, 55 min; direction not given).
